# Experimental data gathered from unrelated publications.
# Each numbered part is a random draw from the data of one study; scales do not carry over between parts. Positions count from the first letter of the parent shown.

# Series 1
# Target: CCNB3, cyclin fold, Cln2 fusion (human)
# Technique: yeast growth competition, sequencing
# Matrix: yeast
# Setting: weak parent motif
# Relative to: not given
# Reading: higher = stronger binding
# Starting sequence: DNAH7 docking peptide (human); HELFQRLDFDNDG
Variant,normalised enrichment score
HALFQRLDFDNDG [E2A],0.43
HELFARLDFDNDG [Q5A],0.599
HELFQRLDFDNDA [G13A],0.348
HELFQRLDFDADG [N11A],0.319
HELFQALDFDNDG [R6A],0.865
HEAFQRLDFDNDG [L3A],-0.23
HELFQRLAFDNDG [D8A],0.164

# Series 2
# Target: CEBPB, bZIP domain (human)
# Technique: DHFR protein complementation
# Matrix: yeast
# Setting: single substitutions, most at no-binding floor
# Relative to: wild-type JUN-FOS pair
# Reading: higher = stronger binding
# Starting sequence: JUN, bZIP domain (human); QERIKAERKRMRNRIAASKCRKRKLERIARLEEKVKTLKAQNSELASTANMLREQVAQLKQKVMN; partner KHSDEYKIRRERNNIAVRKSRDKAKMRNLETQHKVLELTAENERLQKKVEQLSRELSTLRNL
Variant,binding fitness
K34D,-1.09 natural log
R30M,-1.2 natural log
K39I,-1.35 natural log
I28D,-1.05 natural log
V35R,-1.44 natural log
S43H,-1.23 natural log
S47R,-1.14 natural log
L38T,-1.5 natural log
K34G,-1.44 natural log
R30A,-0.901 natural log
S43N,-1.35 natural log
A29F,-1.41 natural log
E44H,-1.42 natural log
A40P,-1.5 natural log
Q41N,-1.45 natural log
A29M,-1.42 natural log
T48K,-1.08 natural log
S47G,-1.29 natural log
A49T,-1.35 natural log
A40K,-1.26 natural log
L45T,-1.48 natural log
V56S,-1.46 natural log
A40Y,-1.45 natural log
R53L,-1.21 natural log
E32G,-1.43 natural log

# Series 3
# Target: Histone acetyltransferase KAT6A, winged helix 1, GST fusion (KAT6A, Homo sapiens, UniProt Q92794, residues 1-85)
# Technique: protein binding microarray
# Molecule type: double-stranded DNA, one strand shown
# Matrix: in vitro
# Concentration: not given
# Setting: 8-mer, flanks averaged, mean of 2 arrays, mostly near background
# Relative to: not given
# Reading: higher = stronger binding
# Target sequence (chain): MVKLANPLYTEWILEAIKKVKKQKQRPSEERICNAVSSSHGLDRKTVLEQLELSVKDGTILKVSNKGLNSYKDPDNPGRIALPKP
Oligonucleotide,E-score
CTAACTTA,-0.0527
AGACAACC,-0.107
CGACCACC,0.0512
ATCCTCAG,-0.152
ACTAGATA,-0.122
ATCGTAGC,-0.0392
AAAACCTG,-0.272
ACGGAGTC,0.0285
AACGTACG,0.188
ACGTATAC,-0.0285
CCCCGGCA,0.262
CCTACGGA,0.154
CAACTAAA,-0.079
TACGCGCA,0.389
GAAAACAC,0.0388
AGGTCACA,0.00882
GGAACTAA,0.0431
CTCTGCTC,-0.279
AACAACTG,-0.0688
CACGTTGG,-0.265
ACCTCCAT,-0.0991
CGCCTGCA,-0.0132
AGATCCAA,-0.226
CAACTCCG,0.0667
AACCAGGG,-0.214

# Series 4
# Target: ABI1, truncated, D143A, DHFR fusion (Arabidopsis thaliana)
# Technique: DHFR PCA, deep sequencing
# Matrix: yeast
# Setting: methotrexate growth selection, single substitutions
# Together with: (+)-ABA 0.11 µM
# Relative to: wild-type fitted maximum
# Reading: higher = stronger binding
# Starting sequence: PYL1, truncated, DHFR fusion (Arabidopsis thaliana); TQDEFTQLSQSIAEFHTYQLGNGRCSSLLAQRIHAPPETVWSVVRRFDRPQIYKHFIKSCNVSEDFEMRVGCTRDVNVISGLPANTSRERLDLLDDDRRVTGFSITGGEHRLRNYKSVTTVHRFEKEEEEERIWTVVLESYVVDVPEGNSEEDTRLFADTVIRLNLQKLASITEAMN; partner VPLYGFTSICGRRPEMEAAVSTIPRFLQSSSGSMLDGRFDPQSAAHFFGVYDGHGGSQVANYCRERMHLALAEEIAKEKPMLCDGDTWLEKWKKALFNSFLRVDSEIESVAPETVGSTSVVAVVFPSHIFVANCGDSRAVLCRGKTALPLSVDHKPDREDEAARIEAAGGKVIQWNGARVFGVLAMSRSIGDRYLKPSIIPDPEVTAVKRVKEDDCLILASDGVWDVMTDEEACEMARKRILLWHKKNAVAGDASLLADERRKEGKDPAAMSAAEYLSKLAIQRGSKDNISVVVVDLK
Variant,relative binding score
R132K,55.7%
E14S,4.7%
S150E,14.5%
V100L,-0.488%
L29F,-0.349%
E67W,-3.99%
E67F,3.14%
E139S,-1.45%
D3V,15.3%
A158V,73.4%
E129D,55.4%
I12Q,-4.1%
R74Y,2.15%
Y18S,3.46%
R90H,-4.91%
V136E,-7.14%

# Series 5
# Target: Ras GTPase-activating protein-binding protein 1, C-terminal RGG region (G3BP1, Homo sapiens, UniProt Q13283)
# UniProt Q13283, sequence (whole entry, looked up): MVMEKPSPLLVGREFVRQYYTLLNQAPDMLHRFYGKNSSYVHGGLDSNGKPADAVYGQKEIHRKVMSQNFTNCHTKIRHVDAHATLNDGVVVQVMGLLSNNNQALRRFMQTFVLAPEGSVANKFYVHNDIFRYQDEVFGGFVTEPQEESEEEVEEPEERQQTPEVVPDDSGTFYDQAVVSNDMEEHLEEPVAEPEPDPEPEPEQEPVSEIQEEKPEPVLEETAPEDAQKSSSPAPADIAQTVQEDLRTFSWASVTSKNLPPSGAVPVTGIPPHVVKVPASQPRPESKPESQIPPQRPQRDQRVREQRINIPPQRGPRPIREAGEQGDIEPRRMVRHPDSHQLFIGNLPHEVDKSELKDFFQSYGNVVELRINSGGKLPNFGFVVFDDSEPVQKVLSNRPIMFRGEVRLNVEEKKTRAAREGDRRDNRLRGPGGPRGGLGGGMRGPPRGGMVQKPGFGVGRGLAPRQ
# Technique: RNA Bind-n-Seq
# Molecule type: RNA
# Matrix: in vitro
# Concentration: 1 µM
# Setting: whole 134-nt RNA, ends assumed
# Together with: 150 mM KCl
# Relative to: input library
# Reading: higher = stronger binding
# Constant ends, left off below: GGGAGUUCUACAGUCCGACGAUC … UGGAAUUCUCGGGUGUCAAGG
Oligonucleotide,log2 enrichment
UGGCCCUGGUGGCAUGCGGGGAGGAAGAGGUGGCCUCAUGCAUCGUGGUGGUCCCGGUGGAAUGUUCAGAGGUGGCCGUGGUGGAGACAG,1.54
UCCCGGGCGCUAGCCCACCUCCCACCCGCCUCUUGGCUCCUCUCCUCUAGGCCGUCGCUUUCGGGUUCUCUCAUCGCUUCGUCGUUCGCC,0.215
UCAAGUCCUGUGCUACACAUCGUAUGUACCGAAUCGGGUGGGAAAGGGUUUGGGAAAGUAUUAUGUUACGCCGUUCGGAUCUGCACUUCC,1.78
GUCCUGUGCUACACAUCGUAUGUACCGAAUCGGGGUUUUUGGGUUUUUGGUUUUUGGGAAAGUAUUAUGUUACGCCGUUCGGAUCUGCAC,-1.29
AGUCCUGUGCUACACAUCGUAUGUACCGAAUCGGGUUUUUGGGAAAAAAAGGGUGGGAAAGUAUUAUGUUACGCCGUUCGGAUCUGCACU,0.69
UCCUGUGCUACACAUCGUAUGUACCGAAUCGGGCCCCCCGGGCCCCCCGGCCCCCCGGGAAAGUAUUAUGUUACGCCGUUCGGAUCUGCA,-1.51
CAAGUCCUGUGCUACACAUCGUAUGUACCGAAUCGGGAGGGUUUUUGGGUUUGGGAAAGUAUUAUGUUACGCCGUUCGGAUCUGCACUUC,0.583
GUCCUGUGCUACACAUCGUAUGUACCGAAUCGGUUUUUGGAAAAAAAGGUUUUUUUGGAAAGUAUUAUGUUACGCCGUUCGGAUCUGCAC,-1.8
GUCCUGUGCUACACAUCGUAUGUACCGAAUCGGGGCCCCCGGCCCCCGGGGCCCCCGGGAAAGUAUUAUGUUACGCCGUUCGGAUCUGCA,-2.25
AGUCCUGUGCUACACAUCGUAUGUACCGAAUCGGUUUUUUUGGAAAGGUUUUUUUGGAAAGUAUUAUGUUACGCCGUUCGGAUCUGCACU,-2.09
CUGUGCUACACAUCGUAUGUACCGAAUCGGUUUUUUUGGGGUUUUUUUGGGUUUUUUUGGGAAAGUAUUAUGUUACGCCGUUCGGAUCUG,-1.27
UCCUGUGCUACACAUCGUAUGUACCGAAUCGGGAAAAAGGGAAAAAGGGUUUUUUUGGGAAAGUAUUAUGUUACGCCGUUCGGAUCUGCA,-0.525
AAAAUUUCCAGUACCUUUGUCACAAUCCUAACACAUUAUCGGGAGCAGUGUCUUCCAUAAUGUAUAAAGAACAAGGUAGUUUUUACCUAC,-1.3
ACCAUGCAGGUGGGCAUCUUUGGGAAGUGGGGCAAGGGGGGGAUAGGGAGGGGGGUAACACUUUGGGAACAGGUGGGCCCAGGUCGUUUC,2.73

# Series 6
# Target: RNA binding protein fox-1 homolog 2, RRM domain, GST-SBP tag (RBFOX2, Homo sapiens, UniProt O43251-10, residues 100-194)
# Technique: RNA Bind-n-Seq
# Molecule type: RNA
# Matrix: in vitro
# Concentration: 365 nM
# Setting: natural RNA segment, single round, ends assumed
# Relative to: no-protein control
# Reading: higher = stronger binding
# Constant ends, left off below: GGGAGUUCUACAGUCCGACGAUC … UGGAAUUCUCGGGUGCCAA
# Target sequence (chain): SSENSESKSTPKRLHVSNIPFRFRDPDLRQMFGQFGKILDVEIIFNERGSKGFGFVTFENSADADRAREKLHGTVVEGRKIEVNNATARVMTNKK
Oligonucleotide,RBNS enrichment (R)
AAACCGGCACCUGCCAGACAGAGCUGGUUCUAAGAUUUAAUACAGUGCUUUUUUUCCUCUUUGAAAUAUUUUACUUUAAUACCAGUGCCUUUUCUUGUUGAACUUCUUGG,0.576
CAAAGAAAAAUUAAGCCUCCCAAUCUUAGGAUCCAAUUGUGCAGUAGAAUUCAGAGACUUCUCAUUCAAUCUUGUAUCCUAUGCAGCUACAAAUAUUUUUUAAAUGUUAG,0.55
UCGACUCUAAAAGAUUUGCCAAAUAACAAAAGCAUACAAUGCAUACUGUUGGAGAACAAGAAUGCUACUGUAUUUUACAUCUUUAUUUCUUGGUGAAACAAAAGUUUUAA,0.356
CAGAGAGUCUCCAAAUAAAAAGGGUUUUGUUCAGAUUAAAAUGUUUACAACAAAAUGUUAAUUAUAUUCUAAAUACAGGGUAUGUUCUAAUCUAUAUUAAGCAAUAAUGC,0.878
UGUGCAGAGUUAGGUUCCAUCUCCAGCAUCACGCACGGGUCUUGUGAACACCGACAUCUUCAGUUUACUUGUGUCUGCAGUUCUGUGGACAGAACAAAGCCAUUCACAAG,0.365
UCCAUGUUUAUACCAAAUUGCACAAAGUAUAGACAUUGAGGUUAAUGGAGAUUUAAGCACAAUCCUAGCAAGUAAGUUUUAAGAAUACUGAAUAUUAUACAUUAUUGUAA,2.41
CUUGAGCCAUGUGGUCUCUUUACAAUCAAGAGACUGUACAUAUGUGAAAAAAUACAAAUUAAGGACCUGUGUUCAUAGACAAUCUAAACUGUGUUUCUGAAGUUUGUGCA,0.928
CUCCAGGUCAUGUCCCUGUGGUUCUGGGGCCACCACUUGUGUAAAAUAAAGUACAGCCUGGACGCUAGUCUUUUGUCAUUUAUUCAGAGGACCAGUGUAGAGUCGGACAA,0.51
CUGGGAUUCGUUUUUUUAUUACCCUCCCUCCCUACUUGUAGGCCUCAGCUAUGGCUUGACGUAAUCGCUUUUAGACCCAGGUUGGCUUCCCUUCAUUAAGCUAUGAUCCU,0.47
UCAAUAUCUGUUUUCUCUGGAGAGUCCACCAGUGACCCAAGCUCUCCCUGCCAGCCUCCUGUGUCAAACCAGGUCCCUUCUCAGUACUGUAUUGGCUCAGUGCUUUCAGG,0.281
AAAUUACUCAGUAUCCAUGUCACCACCAAGUUGUUGUUUUCAAGCCAGUAUAUUUUUUCAUAACUCCAGUGCUCAGACCUAGAGUAAUAAAGCUUUUCUUACAGAAAACC,0.801
CCUCUAGGAGGCAGCCCCUAGGAGCACGCACGUUCUGUCAGUAUUACCCCACCUGUCCUAUCAGGUGGGCCACACCCUGCUUGCCCACACCAGGGUCUGUCCUGGUCCUC,0.27
